# Published values collected from several papers.
# Compare with care: the assays were run in different laboratories. “And” joins repeats or separate records; there may be more than shown. ± gives the spread as reported.
# CFTR del508-508: Cystic fibrosis transmembrane conductance regulator (CFTR, Homo sapiens, UniProt P13569, del508-508)
# Kelch domain-containing protein 2: Kelch domain-containing protein 2 (UniProt Q9Y2U9)
# YAP1 WW2 domain: Transcriptional coactivator YAP1, WW2 domain (YAP1, Homo sapiens, UniProt P46937)
# YAP1 WW1 domain: Transcriptional coactivator YAP1, WW1 domain (YAP1, Homo sapiens, UniProt P46937)
# KCNT1: Potassium channel subfamily T member 1 (KCNT1, Homo sapiens, UniProt Q5JUK3)
# T1: dsDNA, self-complementary 60-mer; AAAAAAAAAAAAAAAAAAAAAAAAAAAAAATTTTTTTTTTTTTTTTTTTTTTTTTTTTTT
Substance,target,test,system,conditions,scale,measurement,result
CSS(C)(=O)=O,"Phosphoribosyl-AMP cyclohydrolase (hisI, Methanococcus vannielii, UniProt Q50837)","enzyme activity, covalent inactivator",,"78 µM, pH 7.5, 4 °C",,inactivation rate,0.26 min⁻¹
[Na+],"melB (Salmonella typhimurium, UniProt P30878)","substrate, isothermal titration calorimetry",,"concentration not given, 15-30 °C, ΔH versus temperature slope, with: 50 mM melibiose",,heat capacity change,-760 J/mol/K
Nc1nc2c(ncn2[C@@H]2O[C@H](COP(=O)(O)OP(=O)(O)OP(=O)(O)O)[C@@H](O)[C@H]2O)c(=O)[nH]1,"RAB32 (Homo sapiens, UniProt Q13637)","nucleotide binding, radiolabelled nucleotide association",,"pH 7.5, nucleotide-depleted GST fusion protein, low magnesium",,half-time of association,12 min
Nc1ncnc2c1ncn2[C@@H]1O[C@H](COP(=O)(O)OP(=O)(O)OP(=O)(O)O)[C@@H](O)[C@H]1O,"HARS1 (Homo sapiens, UniProt P12081, V155G)","thermal stability, DSF",,,,ΔTm,3.04 °C
COc1cccc(C(=O)N2CCN(c3nc4cc(C)cc(C)c4cc3C#N)CC2)c1,CFTR del508-508,"ΔF508-CFTR correction, corrector",FRT,"up to 25 µM, 37 °C, with: forskolin 20 µM + genistein 50 µM",,EC50,inactive
Nc1ccc(-c2nc([C@H]3CCc4cc(-c5cc(Cl)ccc5-n5cnnn5)cc(=O)n43)c(F)[nH]2)c(F)n1,"F11 (Homo sapiens, UniProt P03951)",,"human, blood","oral, 250 mg once daily, fed, day 1, 24 h",,FXI activity inhibition,67 ± 6.5%
VGNRGFVFGG,Kelch domain-containing protein 2,native mass spectrometry,"peptide, 200 mM ammonium acetate","20 µM Kelch domain-containing protein 2, pH 7",baseline: total Kelch domain-containing protein 2 signal,fraction of protein bound,1.4%
CSCC[C@H](NC(=O)[C@@H]1CCCN1C(=O)[C@@H](NC(=O)[C@H](Cc1ccc(O)cc1)NC(=O)[C@H](C)NC(=O)[C@@H]1CCCN1C(=O)[C@@H]1CCCN1C(=O)[C@@H]1CCCN1C(=O)[C@H](CO)NC(=O)[C@H](Cc1c[nH]cn1)NC(=O)CN)[C@@H](C)O)C(=O)N[C@@H](CO)C(=O)O,YAP1 WW2 domain,"binding, ITC",,"pH 7.0, 25 °C, WW2 domain",,TΔS,1.15 ± 0.53 kcal/mol
COCC(=O)O[C@]1(CCN(C)CCCc2nc3ccccc3[nH]2)CCc2cc(F)ccc2[C@@H]1C(C)C,"KCNK9 (Homo sapiens, UniProt Q9NPC2)","ion channel activity, thallium flux",HEK293 (tetracycline-inducible K2P9.1),concentration not given,,minimum activity,72%
YSLAAVVLGLVQSLNRQRQKQLLNE,"Calmodulin-1 (Calm1, Rattus norvegicus, UniProt P0DP29, D21A/D57A)","Ca2+ dissociation, stopped-flow quin-2 fluorescence",peptide,"2 µM, pH 7.4, 22 °C, with: Ca2+-calmodulin complex",,koff2,3.84 s⁻¹ and 3.8 s⁻¹
CC(C)[C@H](NC(=O)[C@@H](N)[C@@H](C)O)C(=O)N[C@@H](C)C(=O)N1CCC[C@H]1C(=O)N1CCC[C@H]1C(=O)N1CCC[C@H]1C(=O)N1CCC[C@H]1C(=O)N[C@@H](Cc1ccc(O)cc1)C(=O)N[C@@H](CCCNC(=N)N)C(=O)N[C@@H](Cc1c[nH]cn1)C(=O)N[C@@H](CCCNC(=N)N)C(=O)N[C@@H](CC(N)=O)C(=O)O,YAP1 WW1 domain,"binding, ITC",,"pH 7.0, 25 °C, WW1 domain",,ΔG,-5.94 ± 0.13 kcal/mol
O=c1c(-c2ccc(O)cc2)coc2cc(O)cc(O)c12,"CNGA1 (Bos taurus, UniProt Q00194)","cGMP-activated current, inside-out patch clamp",Xenopus oocytes,"after closed-channel dissociation, with: saturating cGMP",,recovery time constant,2.4 s
CCOc1ccccc1S(=O)(=O)c1ccc(-c2nc(-c3ccc(F)cc3)no2)cc1,KCNT1,"Tl+ flux, inhibitor",HEK293 expressing KCNT1,30 µM,,activity class,inactive
CC(C)C[C@H](NC(=O)[C@@H](NC(=O)[C@@H](N)[C@@H](C)O)C(C)C)C(=O)N1CCC[C@H]1C(=O)N1CCC[C@H]1C(=O)N1CCC[C@H]1C(=O)N1CCC[C@H]1C(=O)N[C@@H](Cc1ccc(O)cc1)C(=O)N[C@@H](CCCNC(=N)N)C(=O)N[C@@H](C)C(=O)N[C@@H](CCCNC(=N)N)C(=O)N[C@@H](CC(N)=O)C(=O)O,YAP1 WW2 domain,"binding, ITC",,"pH 7.0, 25 °C, WW2 domain",,ΔH,-14.6 ± 0.35 kcal/mol
COc1ccc(Cl)cc1Nc1nc2c(s1)CCCc1nc(N)sc1-2,CFTR del508-508,"iodide influx, corrector, YFP halide quenching",FRT cells expressing YFP-H148Q/I152L,"16 to 20 h, 37 °C, genistein 50 µM, with: forskolin 20 µM",,Vmax,351 µM/s
TVGNRGFVFGG,Kelch domain-containing protein 2,native mass spectrometry,"peptide, 200 mM ammonium acetate","20 µM Kelch domain-containing protein 2, pH 7",baseline: total Kelch domain-containing protein 2 signal,fraction of protein bound,0.3%
C#Cc1ccc(C(F)(F)F)cc1C=O,"CD209 antigen (CD209, Homo sapiens, UniProt Q9NNX6)","activator, plate-based HRP",,"500 µM, overnight, 4 °C or RT",baseline: DMSO control,HRP binding,≥ 50%
CC(C)C[C@H](NC(=O)[C@@H](NC(=O)[C@@H](N)[C@@H](C)O)C(C)C)C(=O)N1CCC[C@H]1C(=O)N1CCC[C@H]1C(=O)N1CCC[C@H]1C(=O)N1CCC[C@H]1C(=O)N[C@@H](Cc1ccc(O)cc1)C(=O)N[C@@H](CCCNC(=N)N)C(=O)N[C@@H](Cc1c[nH]cn1)C(=O)N[C@@H](CCCNC(=N)N)C(=O)N[C@@H](CC(N)=O)C(=O)O,YAP1 WW1 domain,"binding, ITC",,"pH 7.0, 25 °C, WW1 domain",,ΔG,-6.16 ± 0.05 kcal/mol
ARRHSMGWAYKKKK,"NEK2 (Homo sapiens, UniProt P51955, T175A)",substrate,peptide,"Km of kinase, 1 h, 30 °C",baseline: optimal peptide,phosphorylation,≤ 1%
CCOc1ccccc1S(=O)(=O)N1CC(c2nc(-c3ccc(F)cc3Cl)no2)C1,KCNT1,"ion current, activator, automated patch clamp",CHO,30 µM,baseline: bepridil 60 µM,efficacy,100%
IINFEKL,"ERAP1 (Homo sapiens, UniProt Q9NZ08, L733R)","L-AMC hydrolysis, activator",peptide,"100 µM, 5 min, pH 8.0, 27 °C, mutant L733R, with: L-AMC varied from 0 µM",,Vmax,84 ± 1 nmol/min/µg
O=C(O)CNC(=O)C(CS)Cc1ccccc1 (stereo not shown),"Neprilysin (Rattus norvegicus, UniProt P07861)","inhibitor, MALDI-TOF MS",isolated rat glomeruli,"10 µM, 60 min, 37 °C, with: ANG-I 1 µM",,ANG-(1-7) formation,13.4 ± 0.7 pg/glomerulus
NC[C@@H]1O[C@H](O[C@H]2[C@@H](O)[C@H](O[C@@H]3[C@@H](O)[C@H](N)C[C@H](N)[C@H]3O[C@H]3O[C@H](CN)[C@@H](O)[C@H](O)[C@H]3N)O[C@@H]2CO)[C@H](N)[C@@H](O)[C@@H]1O,"T1, dsDNA, self-complementary 60-mer","competitor, fluorescence intercalator displacement",,"pH 6.8, 20 °C, KCl 100 mM, with: thiazole orange",,binding,binds weakly
CCOc1ccccc1S(=O)(=O)N1CC(c2nc(-c3cccnc3)no2)C1,KCNT1,"Tl+ flux, inhibitor",HEK293 expressing KCNT1,30 µM,,activity class,inactive
ternatin-4,"Elongation factor 1-alpha 1, ternary complex on ribosome (EEF1A1, Homo sapiens, UniProt P68104)",smFRET chase,,"10 µM, 25 °C",,residence time,56 s

# Some of these lines once more:
Substance,target,test,system,conditions,scale,measurement,result
COc1ccc(Cl)cc1Nc1nc2c(s1)CCCc1nc(N)sc1-2,CFTR del508-508,"iodide influx, corrector, YFP halide quenching",FRT cells expressing YFP-H148Q/I152L,"16 to 20 h, 37 °C, genistein 50 µM, with: forskolin 20 µM",,Vmax,351 µM/s
TVGNRGFVFGG,Kelch domain-containing protein 2,native mass spectrometry,"peptide, 200 mM ammonium acetate","20 µM Kelch domain-containing protein 2, pH 7",baseline: total Kelch domain-containing protein 2 signal,fraction of protein bound,0.3%
C#Cc1ccc(C(F)(F)F)cc1C=O,"CD209 antigen (CD209, Homo sapiens, UniProt Q9NNX6)","activator, plate-based HRP",,"500 µM, overnight, 4 °C or RT",baseline: DMSO control,HRP binding,≥ 50%
